Experimental data collected from several papers.
A part holds a random share of what one study measured. Changes are numbered by the printed parent chain.

Sample 1
Target: Centromere-binding protein 1, full length, His-tagged (CBF1, Saccharomyces cerevisiae, UniProt P17106, residues 1-351)
Sequence of UniProt P17106 (whole entry, looked up): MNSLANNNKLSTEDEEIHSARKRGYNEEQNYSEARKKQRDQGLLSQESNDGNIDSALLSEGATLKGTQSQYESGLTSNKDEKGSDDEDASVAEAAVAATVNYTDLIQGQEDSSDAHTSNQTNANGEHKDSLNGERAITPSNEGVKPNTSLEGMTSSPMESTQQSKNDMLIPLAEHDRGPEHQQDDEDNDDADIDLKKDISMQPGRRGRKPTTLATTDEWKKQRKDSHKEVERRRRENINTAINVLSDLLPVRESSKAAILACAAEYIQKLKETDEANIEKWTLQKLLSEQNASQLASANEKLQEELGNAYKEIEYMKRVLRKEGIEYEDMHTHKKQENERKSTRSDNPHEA
Method: competition protein-binding microarray
Molecule type: double-stranded DNA, one strand shown
Medium: in vitro
Concentration: 2 µM
Notes: whole 60-bp probe, lowest competitor level
Together with: Pho4 competitor, 0.05 µM
Reading: higher = stronger binding
Measurement: fluorescence intensity
All sequences stand within: … GTCTTGATTCGCTTGACGCTGCTG
TGCGCAACAACTTGTCACCTAACTTTATGTCTAGAA: 68.4 a.u.
ATCCTGAGAAGTTAGCATGTGCTATCGTTGAAGCCA: 148 a.u.
TGCGCAACAACTTGGCAGGTGGGTGTATGTCTAGAA: 99.2 a.u.
CGGGGTTAAGTTTGAATCGTGGGTGGCTTGCAGCAG: 71.8 a.u.
GTCCGCCATGTCCAACACGTTGCTGGCCGCAAAACG: 72.7 a.u.
GATCAAACTGAGGATGACCTGGACATCTTGGTCGCT: 86.3 a.u.
AAAGCGGTAATTTGTTTGGTGGGTGCAGATATCTAT: 84 a.u.
CTAACGAAGGTTTGTCGCGTGGGTGACAAGCCAAGT: 80.4 a.u.
TAGGGGCACTCTAACCTCGTGTAACGCGTAACCTTC: 78.7 a.u.
TTCATTTGTCACCGTCACGTGATGGCATTTAAGTAC: 13300 a.u.
CTCCACCTCGACCATCACGTCCACTTTGCTGCTAAC: 78 a.u.
CAACCAACTGACGAAACCGTGATGGTTATCAGAACT: 93.6 a.u.
CTTTCCCGATCTTGTGTGGTGGGTGTAGCACATTTG: 80 a.u.
CTAACGAAGGTTTGGCTGGTGGGTGACAAGCCAAGT: 45 a.u.
TTAGAGCTAAGAAAGCACGTGGTTACGATAATGAGG: 3610 a.u.
AAAGAACCGTTTTAGCACGTGTTGATTGTCCATTTA: 1460 a.u.
CTTTCCCGATCTTGTCACGCTACTTTAGCACATTTG: 277 a.u.
AAAGCGGTAATTTGAAGTGTGGGTGCAGATATCTAT: 79.8 a.u.
CATACCCAACCTTGCCATGTGGGTGAAGATATTTGT: 76.6 a.u.

Sample 2
Target: ABI1, truncated, D143A, DHFR fusion (Arabidopsis thaliana)
Method: DHFR PCA, deep sequencing
Medium: yeast
Notes: methotrexate growth selection, single substitutions
Together with: (+)-ABA 0.11 µM
Reference: wild-type fitted maximum
Reading: higher = stronger binding
Measurement: relative binding score
Starting sequence: PYL1, truncated, DHFR fusion (Arabidopsis thaliana); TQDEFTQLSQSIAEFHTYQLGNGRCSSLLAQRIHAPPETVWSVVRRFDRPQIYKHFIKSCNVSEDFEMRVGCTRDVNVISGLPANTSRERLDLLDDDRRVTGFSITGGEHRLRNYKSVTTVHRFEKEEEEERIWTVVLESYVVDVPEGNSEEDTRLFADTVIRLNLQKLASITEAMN; partner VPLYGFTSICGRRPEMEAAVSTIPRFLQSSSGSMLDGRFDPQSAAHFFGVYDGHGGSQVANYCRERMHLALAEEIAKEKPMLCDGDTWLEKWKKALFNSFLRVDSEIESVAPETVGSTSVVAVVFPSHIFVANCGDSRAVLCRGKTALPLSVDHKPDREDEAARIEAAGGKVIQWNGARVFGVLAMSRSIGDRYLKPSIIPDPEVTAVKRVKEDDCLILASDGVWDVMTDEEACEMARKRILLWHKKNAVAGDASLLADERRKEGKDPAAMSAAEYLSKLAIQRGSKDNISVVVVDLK
N177T: 46.9%
R69L: 5.59%
S27P: -6.01%
G148I: -7.12%
T160K: -2.04%
V143Y: -9.65%
L156G: 0.369%
V136L: 25.9%
I105W: -5.37%
Q51T: -0.546%
I12P: 0.118%
T17L: -10.4%
G71D: -1.43%
L28N: 0.00227%
A170C: 13.7%

Sample 3
Target: CCNB3, cyclin fold, Cln2 fusion (human)
Method: yeast growth competition, sequencing
Medium: yeast
Notes: weak parent motif
Reference: not given
Reading: higher = stronger binding
Measurement: normalised enrichment score
Starting sequence: SAMHD1 docking peptide (human); ASKSRVQLFKDDP
ASKSRVQLFKNDP [D11N]: 0.115
ASKSPVQLFKDDP [R5P]: -0.425
ASKSRVQLCKDDP [F9C]: -0.0479
ASKSNVQLFKDDP [R5N]: -0.163
ASKSYVQLFKDDP [R5Y]: -0.042
ASYSRVQLFKDDP [K3Y]: -0.341
ASKSRVQLFKDPP [D12P]: 0.0508
ASKSRVQLFSDDP [K10S]: 0.246
ASKSEVQLFKDDP [R5E]: -0.201
ASKSRVQGFKDDP [L8G]: -0.043
ASKSRVYLFKDDP [Q7Y]: 0.0911
ASKSTVQLFKDDP [R5T]: -0.247
ASKMRVQLFKDDP [S4M]: 0.00536
ASKSRVGLFKDDP [Q7G]: 0.0199
ASKSRVQDFKDDP [L8D]: -0.0528
ASKSRVQLFMDDP [K10M]: -0.115
ASKSRVQNFKDDP [L8N]: -0.0158
AKKSRVQLFKDDP [S2K]: -0.321

Sample 4
Target: Fragile X messenger ribonucleoprotein 1, C-terminal low-complexity region (Fmr1, Mus musculus, UniProt P35922)
Method: RNA Bind-n-Seq
Molecule type: RNA
Medium: in vitro
Concentration: 200 nM
Notes: whole 134-nt RNA, ends assumed
Together with: 150 mM KCl
Reference: input library
Reading: higher = stronger binding
Measurement: log2 enrichment
All sequences stand within: GGGAGUUCUACAGUCCGACGAUC … UGGAAUUCUCGGGUGUCAAGG
UGGCCCUGGUGGCAUGCGGGGAGGAAGAGGUGGCCUCAUGGAUCGUGGUGGUCCCGGUGGAAUGUUCAGAGGUGGCCGUGCUGGAGACAG: -0.155
UGUGCUACACAUCGUAUGUACCGAAUCGGGGUUUUUUUGGGUUUUUUUGGGUUUUUUUGGGGAAAGUAUUAUGUUACGCCGUUCGGAUCU: 0.197
UCUCUUAUGCUAUUGGAGUUUCUCAUCCAUUAUCUAUCUCCAUUUUCCAUUAUGGUACCUCUCAGAAGAGUGAGAGAGAGCUAUUAGAGA: -1.24
GCAGGAAGUAAAAACAAAUGGAAAUGCUUCGGAUAGUGGAAGGGGUGGGGGUUGCUAAGGAAAGGGUGGGAUGGGAGUGGGUAAAGAGUU: 0.159
GUCCUGUGCUACACAUCGUAUGUACCGAAUCAAACCCCCAAAUUUUUAAAUUUUUAAAAAAGUAUUAUGUUACGCCGUUCGGAUCUGCAC: 0.276
GCAGGAAGUAAAAACAAUUGGAAAUGCUUCGGAUAGUGGCAGGGGUGGGGGUUGCUAAGGAAAGGGUGGGAUGGGAGUGGGUAAAGAGUU: 0.23
UCAAGUCCUGUGCUACACAUCGUAUGUACCGAAUCGGGGAAGGAAGGGAAGGGGAAAGUAUUAUGUUACGCCGUUCGGAUCUGCACUUCC: 0.467
CCUCAAGUCCUGUGCUACACAUCGUAUGUACCGAAUCGGAGGGGAGGGGAGGGAAAGUAUUAUGUUACGCCGUUCGGAUCUGCACUUCCA: 1.16
AAGUCCUGUGCUACACAUCGUAUGUACCGAAUCGGGUUUGGGUUUUUGGGAAAGGGAAAGUAUUAUGUUACGCCGUUCGGAUCUGCACUU: 0.687

Sample 5
Target: Histone acetyltransferase KAT6A, both winged helices, GST fusion (KAT6A, Homo sapiens, UniProt Q92794, residues 1-181)
Method: protein binding microarray
Molecule type: double-stranded DNA, one strand shown
Medium: in vitro
Concentration: not given
Notes: 8-mer, flanks averaged, mean of 2 arrays, mostly near background
Reference: not given
Reading: higher = stronger binding
Measurement: E-score
Residues (chain): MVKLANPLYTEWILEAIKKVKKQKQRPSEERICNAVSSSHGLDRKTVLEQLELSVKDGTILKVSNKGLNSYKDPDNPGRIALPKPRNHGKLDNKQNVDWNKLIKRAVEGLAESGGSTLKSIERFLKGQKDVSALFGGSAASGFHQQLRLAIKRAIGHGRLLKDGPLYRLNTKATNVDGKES
ACCGATCT: 0.0526
GACGTTGC: 0.146
ATTGGCAG: -0.124
TATGCACA: -0.212
CGGAGACC: 0.225
CAGTACGC: 0.0558
CGGTGATC: 0.0792
ACTTCGCA: -0.0177
ATATTCGG: 0.00164
GGCGGGGA: 0.211
CCACAAGC: -0.064
CGTCTGTC: 0.134
CAAACTTA: -0.00246
ATTACAGG: 0.00963
AGCCATGA: -0.11
ACCAGCAA: -0.0508
GTTCGCCA: -0.0123
AATGCCCG: 0.159

A few entries again (sample 5):
CGGTGATC: 0.0792
ACTTCGCA: -0.0177
ATATTCGG: 0.00164
GGCGGGGA: 0.211
CCACAAGC: -0.064
